Measured values of several laboratories.
Every numbered part comes from another study and shows a few of its results, in no order.
Sequence of UniProt P36897 (whole entry, looked up): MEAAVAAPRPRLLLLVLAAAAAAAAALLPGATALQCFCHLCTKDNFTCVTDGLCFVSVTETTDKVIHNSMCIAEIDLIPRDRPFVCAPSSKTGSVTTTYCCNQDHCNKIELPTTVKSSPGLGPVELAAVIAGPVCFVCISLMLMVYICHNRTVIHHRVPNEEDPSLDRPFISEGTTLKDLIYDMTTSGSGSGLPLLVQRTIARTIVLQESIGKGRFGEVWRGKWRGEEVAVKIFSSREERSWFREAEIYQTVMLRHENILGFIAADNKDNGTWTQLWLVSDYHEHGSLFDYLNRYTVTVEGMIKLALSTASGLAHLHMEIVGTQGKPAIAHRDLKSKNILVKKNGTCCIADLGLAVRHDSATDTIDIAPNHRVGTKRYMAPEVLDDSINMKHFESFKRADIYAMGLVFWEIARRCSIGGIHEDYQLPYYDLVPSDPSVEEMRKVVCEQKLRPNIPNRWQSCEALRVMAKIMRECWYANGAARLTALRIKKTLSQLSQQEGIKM
Sequence of UniProt P45983 (whole entry, looked up): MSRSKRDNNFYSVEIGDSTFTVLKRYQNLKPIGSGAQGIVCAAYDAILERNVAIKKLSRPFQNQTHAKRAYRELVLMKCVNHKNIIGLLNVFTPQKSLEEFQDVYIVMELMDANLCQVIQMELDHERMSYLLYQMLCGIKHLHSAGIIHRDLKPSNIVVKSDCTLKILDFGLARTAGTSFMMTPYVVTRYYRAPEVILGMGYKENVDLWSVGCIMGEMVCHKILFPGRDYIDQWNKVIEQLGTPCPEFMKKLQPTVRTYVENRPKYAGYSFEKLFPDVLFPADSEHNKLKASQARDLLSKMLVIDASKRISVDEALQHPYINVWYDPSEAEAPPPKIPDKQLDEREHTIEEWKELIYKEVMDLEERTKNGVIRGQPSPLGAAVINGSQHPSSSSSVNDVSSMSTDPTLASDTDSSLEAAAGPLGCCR
Sequence of UniProt Q07002 (whole entry, looked up): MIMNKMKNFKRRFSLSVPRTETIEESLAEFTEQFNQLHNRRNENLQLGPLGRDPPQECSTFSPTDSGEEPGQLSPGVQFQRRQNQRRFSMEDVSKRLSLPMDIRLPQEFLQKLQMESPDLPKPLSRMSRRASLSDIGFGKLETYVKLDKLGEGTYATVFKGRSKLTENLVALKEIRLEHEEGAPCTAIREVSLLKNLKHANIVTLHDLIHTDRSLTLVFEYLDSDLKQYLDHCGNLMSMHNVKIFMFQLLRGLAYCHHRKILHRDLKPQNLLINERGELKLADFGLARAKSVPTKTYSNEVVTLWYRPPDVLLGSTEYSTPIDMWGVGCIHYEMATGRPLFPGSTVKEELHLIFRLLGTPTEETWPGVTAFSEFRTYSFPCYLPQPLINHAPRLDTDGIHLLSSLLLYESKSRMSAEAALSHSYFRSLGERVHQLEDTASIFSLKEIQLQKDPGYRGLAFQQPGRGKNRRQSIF
Sequence of UniProt Q9UEE5 (whole entry, looked up): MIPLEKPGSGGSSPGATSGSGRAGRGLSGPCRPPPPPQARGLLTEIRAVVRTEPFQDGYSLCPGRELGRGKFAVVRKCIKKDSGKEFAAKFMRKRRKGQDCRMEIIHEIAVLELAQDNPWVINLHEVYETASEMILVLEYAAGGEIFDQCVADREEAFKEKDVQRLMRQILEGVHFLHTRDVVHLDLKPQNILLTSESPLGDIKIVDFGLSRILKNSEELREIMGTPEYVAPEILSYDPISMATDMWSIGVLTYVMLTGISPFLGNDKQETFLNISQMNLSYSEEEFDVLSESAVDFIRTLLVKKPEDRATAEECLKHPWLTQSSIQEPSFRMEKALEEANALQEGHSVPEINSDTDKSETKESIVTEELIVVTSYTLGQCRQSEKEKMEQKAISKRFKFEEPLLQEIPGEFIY
Sequence of UniProt Q8TBX8 (whole entry, looked up): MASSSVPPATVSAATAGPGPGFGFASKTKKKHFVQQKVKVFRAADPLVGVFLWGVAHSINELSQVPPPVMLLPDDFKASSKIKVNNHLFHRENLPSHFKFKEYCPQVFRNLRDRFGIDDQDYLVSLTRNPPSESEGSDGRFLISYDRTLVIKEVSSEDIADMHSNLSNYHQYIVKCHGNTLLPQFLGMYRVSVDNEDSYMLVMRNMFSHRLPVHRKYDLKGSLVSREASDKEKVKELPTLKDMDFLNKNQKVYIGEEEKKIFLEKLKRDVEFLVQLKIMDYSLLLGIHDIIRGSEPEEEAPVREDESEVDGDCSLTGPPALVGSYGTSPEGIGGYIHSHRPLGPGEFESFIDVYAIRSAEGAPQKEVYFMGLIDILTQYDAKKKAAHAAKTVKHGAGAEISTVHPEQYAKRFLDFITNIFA

Study 1
Target: Calcium/calmodulin-dependent protein kinase type II subunit alpha (CAMK2A, Homo sapiens, UniProt Q9UQM7)
Sequence of UniProt Q9UQM7 (whole entry, looked up): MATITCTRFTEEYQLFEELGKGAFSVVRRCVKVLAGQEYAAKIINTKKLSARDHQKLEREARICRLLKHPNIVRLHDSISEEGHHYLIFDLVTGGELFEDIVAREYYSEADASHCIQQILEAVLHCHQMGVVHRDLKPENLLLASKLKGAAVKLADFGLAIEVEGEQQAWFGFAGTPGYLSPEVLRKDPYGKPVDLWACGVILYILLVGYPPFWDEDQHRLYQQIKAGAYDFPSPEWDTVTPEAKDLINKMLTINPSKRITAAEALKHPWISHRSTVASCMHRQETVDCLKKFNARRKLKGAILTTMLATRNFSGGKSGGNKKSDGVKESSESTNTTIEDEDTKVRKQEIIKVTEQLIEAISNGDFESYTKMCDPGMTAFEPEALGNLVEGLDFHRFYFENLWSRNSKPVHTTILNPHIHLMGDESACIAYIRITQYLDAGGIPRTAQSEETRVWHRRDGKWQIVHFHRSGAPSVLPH
Read-out: enzyme activity
Action: inhibitor
Tested at: 10 µM
Structure (SMILES)	inhibition [%]
C/C=C(/C)C(=O)O[C@H]1[C@H](OC(C)=O)[C@@]2(CO)C(CC1(C)C)C1=CCC3[C@@]4(C)CC[C@H](O[C@@H]5O[C@H](C(=O)O)[C@@H](O[C@@H]6O[C@H](CO)[C@@H](O)[C@H](O)[C@H]6O)[C@H](O)[C@H]5O[C@@H]5O[C@H](CO)[C@@H](O)[C@H](O)[C@H]5O)[C@](C)(CO)C4CC[C@@]3(C)[C@]1(C)C[C@H]2O (stereo partly shown)	-32
CCCCCCCCCCCCCCC(=O)OC	13
Cc1ncc([N+](=O)[O-])n1CC(O)CN1CCOCC1 (stereo not shown)	-11
O=C(O)[C@@H](O)[C@H](O)[C@H](O)[C@@H](O)C(=O)O	10
COC(=O)c1ccc(O)c(O)c1	53

Study 2
SMILES: O=C(Nc1cnc(Oc2ccc(F)cc2)nc1)N1CCc2ncccc2[C@@H]1c1ccc(F)cc1
Technique: competition with immobilised ligand
Tested at: 1 µM
target	read-out	remaining binding [%]
Cyclin-dependent kinase 18 (CDK18, Homo sapiens, UniProt Q07002)	cell-free assay	96
Serine/threonine-protein kinase ULK1 (ULK1, Homo sapiens, UniProt O75385)	cell-free assay	88
Eukaryotic translation initiation factor 2-alpha kinase 1 (EIF2AK1, Homo sapiens, UniProt Q9BQI3)	cell-free assay	100
TGF-beta receptor type-1 (TGFBR1, Homo sapiens, UniProt P36897)	cell-free assay	90
Cyclin-dependent kinase-like 2 (CDKL2, Homo sapiens, UniProt Q92772)	cell-free assay	33
Serine/threonine-protein kinase MARK1 (MARK1, Homo sapiens, UniProt Q9P0L2)	cell-free assay	71
Mitogen-activated protein kinase 8 (MAPK8, Homo sapiens, UniProt P45983)	cell-free assay	83
Serine/threonine-protein kinase DCLK1 (DCLK1, Homo sapiens, UniProt O15075)	cell-free assay	83
Tyrosine-protein kinase ABL1, non-phosphorylated (ABL1, Homo sapiens, UniProt P00519, F317I)	binding	99
Phosphatidylinositol 4,5-bisphosphate 3-kinase catalytic subunit alpha isoform (PIK3CA, Homo sapiens, UniProt P42336, I800L)	cell-free assay	69
Serine/threonine-protein kinase ULK2 (ULK2, Homo sapiens, UniProt Q8IYT8)	cell-free assay	93
NUAK family SNF1-like kinase 1 (NUAK1, Homo sapiens, UniProt O60285)	cell-free assay	95
Receptor-type tyrosine-protein kinase FLT3 (FLT3, Homo sapiens, UniProt P36888, F691L/ITD)	cell-free assay	79
Phosphatidylinositol 5-phosphate 4-kinase type-2 gamma (PIP4K2C, Homo sapiens, UniProt Q8TBX8)	cell-free assay	86
Serine/threonine-protein kinase 17A (STK17A, Homo sapiens, UniProt Q9UEE5)	cell-free assay	85
Tyrosine-protein kinase ABL1, phosphorylated (ABL1, Homo sapiens, UniProt P00519, H396P)	cell-free assay	100
Serine/threonine-protein kinase RIO1 (RIOK1, Homo sapiens, UniProt Q9BRS2)	cell-free assay	89
Mast/stem cell growth factor receptor Kit (KIT, Homo sapiens, UniProt P10721, V559D)	cell-free assay	100

Study 3
Target: Platelet-derived growth factor receptor beta (PDGFRB, Homo sapiens, UniProt P09619)
Sequence of UniProt P09619 (whole entry, looked up): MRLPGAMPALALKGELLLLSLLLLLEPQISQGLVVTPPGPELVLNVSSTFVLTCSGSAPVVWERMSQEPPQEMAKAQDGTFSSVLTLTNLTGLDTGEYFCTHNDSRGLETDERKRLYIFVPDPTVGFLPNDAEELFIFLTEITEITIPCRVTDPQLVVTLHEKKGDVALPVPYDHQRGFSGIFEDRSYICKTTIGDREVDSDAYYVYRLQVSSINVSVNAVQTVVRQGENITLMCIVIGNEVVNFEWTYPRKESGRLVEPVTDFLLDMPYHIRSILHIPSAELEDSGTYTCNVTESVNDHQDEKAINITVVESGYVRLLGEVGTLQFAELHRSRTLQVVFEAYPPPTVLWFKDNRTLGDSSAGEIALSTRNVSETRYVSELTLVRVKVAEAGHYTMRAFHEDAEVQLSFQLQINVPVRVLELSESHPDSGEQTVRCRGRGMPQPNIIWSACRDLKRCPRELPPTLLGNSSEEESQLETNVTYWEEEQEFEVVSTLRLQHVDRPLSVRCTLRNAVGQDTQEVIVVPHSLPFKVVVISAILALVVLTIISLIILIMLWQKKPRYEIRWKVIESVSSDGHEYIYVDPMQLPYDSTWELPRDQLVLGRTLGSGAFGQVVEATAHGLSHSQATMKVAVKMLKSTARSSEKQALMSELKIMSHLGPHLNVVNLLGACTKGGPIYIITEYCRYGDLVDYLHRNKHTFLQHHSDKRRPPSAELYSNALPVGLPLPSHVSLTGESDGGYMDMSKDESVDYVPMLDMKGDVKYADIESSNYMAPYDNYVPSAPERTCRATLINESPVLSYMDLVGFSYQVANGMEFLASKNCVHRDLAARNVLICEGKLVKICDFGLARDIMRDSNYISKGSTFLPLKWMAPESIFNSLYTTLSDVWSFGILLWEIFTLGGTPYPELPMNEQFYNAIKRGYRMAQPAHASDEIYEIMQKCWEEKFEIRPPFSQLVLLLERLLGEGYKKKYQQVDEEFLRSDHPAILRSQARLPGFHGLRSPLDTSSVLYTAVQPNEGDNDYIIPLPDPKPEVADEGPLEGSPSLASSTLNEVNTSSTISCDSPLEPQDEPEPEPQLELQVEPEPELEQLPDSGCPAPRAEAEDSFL
Read-out: enzyme activity
Action: inhibitor
Tested at: 0.5 µM
Reference: control
Structure (SMILES)	remaining activity
Oc1ccc(Nc2nc(-c3ccc(Cl)cc3)cs2)cc1	107%
Nc1ncnc2c1cnn2-c1ccccc1	94.7%
Cc1cncc2cccc(S(=O)(=O)N3CCCN(C(=O)CN)C[C@@H]3C)c12	104%
O=C1Cc2c([nH]c3ccc([N+](=O)[O-])cc23)-c2ccccc2N1	87.4%
Nc1nccc(-c2c(-c3ccc(F)cc3)ncn2C2CCNCC2)n1	98.7%
CC(C)(C)n1nc(Cc2cccc3ccccc23)c2c(N)ncnc21	83.3%
COc1ccc(S(=O)(=O)N(CCO)c2ccccc2CN(C)CC=Cc2ccc(Cl)cc2)cc1	104%
Nc1nc(Nc2ccc(S(N)(=O)=O)cc2)nn1C(=O)c1c(F)cccc1F	89.1%
Cc1cc(Nc2nc(-c3ccccc3)nc3ccccc23)n[nH]1	55.4%
NC(=O)c1ccc(N(C(N)=O)c2c(F)cccc2F)nc1-c1ccc(F)cc1F	62.8%
CSc1nc(-c2ccnc(N[C@@H](C)c3ccccc3)c2)c(-c2ccc(F)cc2)[nH]1 (racemic)	97.6%
Cc1ccc(NC2=CC(=O)c3sc(C)nc3C2=O)cc1	94.5%
Fc1ccc(-c2nc3n(c2-c2ccncc2)CCS3)cc1	107%
CCCC(=O)Oc1ccc2[nH]c(C(=O)c3cc4ccccc4[nH]3)cc2c1	91.2%
CCc1[nH]c(-c2ccc(OC)cc2)nc1-c1ccncc1	105%
O=C1NC(=O)C(c2c[nH]c3ccccc23)=C1c1c[nH]c2ccccc12	95.6%
CC#CC(=O)Nc1cc2c(Nc3ccc(F)c(Cl)c3)ncnc2cn1	103%
O=S(=O)(NCCNC/C=C/c1ccc(Br)cc1)c1cccc2cnccc12	112%
COc1cc(Nc2c(C#N)cnc3cc(OCCCN4CCN(C)CC4)c(OC)cc23)c(Cl)cc1Cl	74.8%
N#CC(=C(N)Sc1ccc(N)cc1)c1ccccc1C(F)(F)F	103%
CC[n+]1c(/C=C/N(C)c2ccccc2)n(-c2ccccc2)c2ccc(-c3nc4ccccc4s3)cc21	102%

Study 4
Compound: O=C1CCC(N2Cc3cc(C4CCN(Cc5ccccc5)CC4)ccc3C2=O)C(=O)N1 (stereo not shown)
Target: CRBN/Zinc finger protein Helios (Homo sapiens, UniProt Q96SW2+Q9UKS7)
Sequence of UniProt Q96SW2 (whole entry, looked up): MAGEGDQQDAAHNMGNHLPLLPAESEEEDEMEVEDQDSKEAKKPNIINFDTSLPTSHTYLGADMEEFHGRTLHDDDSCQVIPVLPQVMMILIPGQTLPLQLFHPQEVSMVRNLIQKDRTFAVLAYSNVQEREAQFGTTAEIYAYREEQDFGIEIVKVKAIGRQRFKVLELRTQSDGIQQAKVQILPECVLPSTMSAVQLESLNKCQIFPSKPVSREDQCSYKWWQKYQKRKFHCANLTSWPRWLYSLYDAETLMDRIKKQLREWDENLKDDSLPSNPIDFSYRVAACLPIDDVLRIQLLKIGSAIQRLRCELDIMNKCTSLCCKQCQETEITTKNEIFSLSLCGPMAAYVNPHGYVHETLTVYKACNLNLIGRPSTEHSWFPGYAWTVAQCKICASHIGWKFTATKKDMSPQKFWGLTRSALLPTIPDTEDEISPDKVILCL
Sequence of UniProt Q9UKS7 (whole entry, looked up): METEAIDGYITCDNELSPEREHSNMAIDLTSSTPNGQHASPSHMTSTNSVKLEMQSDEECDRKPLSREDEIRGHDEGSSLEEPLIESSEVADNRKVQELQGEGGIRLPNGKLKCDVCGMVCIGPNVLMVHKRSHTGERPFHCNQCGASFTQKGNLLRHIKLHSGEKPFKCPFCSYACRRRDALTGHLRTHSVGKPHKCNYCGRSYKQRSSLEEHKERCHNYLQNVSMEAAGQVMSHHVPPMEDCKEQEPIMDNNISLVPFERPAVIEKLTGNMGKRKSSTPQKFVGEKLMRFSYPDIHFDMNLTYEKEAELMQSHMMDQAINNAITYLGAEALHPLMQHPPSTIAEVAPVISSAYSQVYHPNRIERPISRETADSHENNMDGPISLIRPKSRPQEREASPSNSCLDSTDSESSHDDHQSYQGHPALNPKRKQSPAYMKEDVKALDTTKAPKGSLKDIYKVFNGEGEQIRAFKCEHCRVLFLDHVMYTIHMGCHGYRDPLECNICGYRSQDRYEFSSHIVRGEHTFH
Action: degrader
Technique: HiBiT kinetics
Cells: HEK293
tested at	time	protein remaining [%]
12.35 nM	1 h	84.6
37.04 nM	3 h	30.9
12.35 nM	6 h	27.6
4.115 nM	3 h	54.6
111.1 nM	1 h	71.1
1.372 nM	3 h	64
0.01694 nM	0.5 h	105
0.4572 nM	1 h	92.8

Some of these lines once more (study 3):
Structure (SMILES)	remaining activity
Cc1cc(Nc2nc(-c3ccccc3)nc3ccccc23)n[nH]1	55.4%
NC(=O)c1ccc(N(C(N)=O)c2c(F)cccc2F)nc1-c1ccc(F)cc1F	62.8%
O=C1NC(=O)C(c2c[nH]c3ccccc23)=C1c1c[nH]c2ccccc12	95.6%
Oc1ccc(Nc2nc(-c3ccc(Cl)cc3)cs2)cc1	107%
CC(C)(C)n1nc(Cc2cccc3ccccc23)c2c(N)ncnc21	83.3%
Cc1cncc2cccc(S(=O)(=O)N3CCCN(C(=O)CN)C[C@@H]3C)c12	104%
CSc1nc(-c2ccnc(N[C@@H](C)c3ccccc3)c2)c(-c2ccc(F)cc2)[nH]1 (racemic)	97.6%
Nc1nccc(-c2c(-c3ccc(F)cc3)ncn2C2CCNCC2)n1	98.7%
